Experimental data from different studies.
Numbers after ± are the reported error.
Grik2: Glutamate receptor ionotropic, kainate 2 (Grik2, Rattus norvegicus, UniProt P42260)
CA9: Carbonic anhydrase 9 (CA9, Homo sapiens, UniProt Q16790)
Tmem97: Sigma intracellular receptor 2 (Tmem97, Rattus norvegicus, UniProt Q5U3Y7)
ADH1 H49Q: ADH1 (Saccharomyces cerevisiae, UniProt P00330, H49Q)

The Ki of `COCC1OC2CC(CC(N)C(=O)O)(C(=O)O)OC2C(O)C1O` (stereo not drawn) is reported as 2.4 µM (Grik2; [3H]kainate displacement; HEK-293T/17 membranes; together with: [3H]kainate).
`CN1CCC2=C(C1)c1ccccc1Cc1ccccc12` gave a Ki of 0.0293 µM (HTR1E (Homo sapiens, UniProt P28566); binding).
`CCC(CC)(NC(=O)c1ccc(C2CC2)c(Cc2ccc(F)cc2)n1)C(=O)NCCOCCOCCNC(=O)c1ccc2c(c1)C1(OC2=O)c2ccc(N(C)C)cc2[Si](C)(C)c2cc(N(C)C)ccc21` has a Ki of 0.684 µM (CNR2 (Homo sapiens, UniProt P34972); binding, [3H]CP55940 displacement; CHO cell membranes).
`COc1ccc(NC(=O)Nc2ccc3c(c2)C=CCP(=O)(O)O3)cc1` gave a Ki of 0.0053 µM (CA9).
For `O=C(O)COP(=O)(O)O`, the Ki was 840 µM (Triosephosphate isomerase (Trypanosoma brucei, UniProt Q385L6, I172A/P168A)).
`Cc1cccc(C)c1N1C(=O)CNC2(CCN(C)CC2)C1=O` has a Ki of greater than 10 µM (Tmem97).
For `O=[As](O)(O)c1ccc(Cc2ccc([As](=O)(O)O)cc2)cc1`, the Ki was 0.24 ± 0.045 µM (Autotaxin (ENPP2, Homo sapiens, UniProt Q13822); lysoPLD activity; pH 8.0, together with: FS-3).
With `O=C(Nc1ccc2c(c1)C=CCP(=O)(O)O2)Nc1ccccc1Br` the Ki was 0.0469 µM (CA9).
`OB(O)c1csc2ccccc12` gave a Ki of 0.012 µM (Uncharacterized hydrolase SAUSA300_2518 (Staphylococcus aureus, UniProt Q2FDS6); enzyme activity, inhibitor).
`Oc1ccc(N=Nc2ccc(-c3nc4ccccc4s3)cc2)c2cccnc12` has a Ki of 1.1 µM (Amyloid-beta precursor protein, Aβ40 fibrils (APP, Homo sapiens, UniProt P05067); binding to Aβ fibrils, thioflavin T competition; Aβ 5 µM, together with: ThT 2 µM).
With `OC1Cc2ccccc2CC1N1CCC2(CC1)C(Br)=Cc1ccccc12` (racemic) the Ki was 11 ± 1 µM (Tmem97; binding, radioligand displacement; rat liver membranes; together with: [3H]DTG, dextrallorphan masking).
`O=C(Nc1ccc(F)cc1)Nc1ccc2c(c1)C=CCP(=O)(O)O2` gave a Ki of 0.0044 µM (CA9).
With `OCC(F)(F)F` the Ki was 33000 µM (ADH1 H49Q; inhibitor).
For `Nc1nc2ncc(CNc3ccc(C(=O)N[C@@H](CCC(=O)O)C(=O)O)cc3)nc2c(=O)[nH]1`, the Ki was 0.6 ± 0.12 µM (Proton-coupled folate transporter, E247R; ThTr1 chimera (Homo sapiens, UniProt Q96NT5); [3H]methotrexate uptake, inhibitor, Dixon plot; transfected cells tp-E247R; pH 5.5, together with: [3H]methotrexate 0.5 µM).
`NC(CC1(C(=O)O)CC2OC(CO)C(O)C(N)C2O1)C(=O)O` (stereo not drawn) has a Ki of greater than 10 µM (Gria2 (Rattus norvegicus, UniProt P19491); [3H]AMPA displacement; HEK-293T/17 membranes).
The Ki of `Cc1ccc2c(c1)C1(C=C2)CCN(C2Cc3ccccc3CC2O)CC1` (racemic) is reported as 0.62 ± 0.26 µM (Tmem97; radioligand binding; rat liver; together with: [3H]DTG, 1 µM dextrallorphan mask).
`O=C(Nc1ccc(I)cc1)Nc1ccc2c(c1)C=CCP(=O)(O)O2` gave a Ki of 0.036 µM (CA9).
`C=CC(O)CO` (stereo not drawn) has a Ki of 2100 µM (Cytochrome P450 2E1 (Cyp2e1, Mus musculus, UniProt Q05421); 4-nitrophenol oxidation, inhibitor; B6C3F1 mouse, liver microsomes; 30 min, pH 7.4, binding to substrate-bound enzyme).
`Cc1ccc([C@@H]2O[C@H](CO)[C@@H](O)[C@H](O)[C@H]2O)cc1Cc1ccc(-c2ccc(F)cc2)s1` gave a maximum inhibition of 15.8% (human coronavirus OC43; virus-induced cell killing; MRC-5; screen).
For `O=C(Nc1ccc2c(c1)C=CCP(=O)(O)O2)c1ccccc1Br`, the Ki was 0.0232 µM (CA9).
For `NC(=O)c1ccc[n+]([C@@H]2O[C@H](COP(=O)([O-])OP(=O)(O)OC[C@H]3O[C@@H](n4cnc5c(N)ncnc54)[C@H](O)[C@@H]3O)[C@@H](O)[C@H]2O)c1`, the Ki was 480 µM (ADH1 H49Q; inhibitor; pH 7).
For `C[C@@H](O[C@H]1OCCN(Cc2n[nH]c(=O)[nH]2)[C@H]1c1ccc(F)cc1)c1cc(C(F)(F)F)cc(C(F)(F)F)c1`, the maximum inhibition was 0.788% (human coronavirus OC43; virus-induced cell killing; MRC-5; maximum over 10 doses).
`O=C(Nc1cccc(C(F)(F)F)c1)Nc1ccc2c(c1)C=CCP(=O)(O)O2` has a Ki of 0.0319 µM (CA9).
With `O[C@@H]1CCCC[C@H]1N1CCC(c2ccccc2)CC1` (racemic) the Ki was 0.24 ± 0.01 µM (Tmem97; radioligand binding; rat liver; together with: [3H]DTG, 1 µM dextrallorphan mask).
The Ki of `Cc1cccc(C)c1N1C(=O)[C@H](CC2CNc3ccccc32)NC2(CCN(C)CC2)C1=O` (stereo partly drawn) is reported as greater than 10 µM (SIGMAR1 (Cavia porcellus, UniProt Q60492)).
The Ki of `OC(c1ccc(F)cc1)C(F)(F)CCN1CCC(O)(c2ccc(Cl)cc2)CC1` (racemic) is reported as 0.032 ± 0.0032 µM (Tmem97).
`CCOP1(=O)CC=Cc2cc(N)ccc2O1` (stereo not drawn) gave a Ki of 0.0035 µM (CA9).
With `NC(CC1(C(=O)O)CC2OC(CO)C(O)C(O)C2O1)C(=O)O` (stereo not drawn) the Ki was 0.834 µM (Grik2; binding; HEK293T/17 membranes; together with: [3H]kainate).
With `Cc1ccc(NC(=O)Nc2ccc3c(c2)C=CCP(=O)(O)O3)cc1` the Ki was 0.0469 µM (CA9).
`CC1=Cc2ccccc2C12CCN(C1Cc3ccccc3CC1O)CC2` (racemic) has a Ki of 1.7 ± 0.6 µM (Tmem97; radioligand binding; rat liver; together with: [3H]DTG, 1 µM dextrallorphan mask).
